Published values from different studies.
Compare with care: the assays were run in different laboratories. “And” joins repeats or separate records; there may be more than shown. ± marks the error that the study gave.

For `CCN(O)N=Nc1ccc(S(=O)(=O)Nc2nccs2)cc1`, “paw edema volume” read 3.62 ± 0.93 a.u. (carrageenan-induced paw edema; Wistar rat; oral, 100 mg/kg, 0 h (baseline), added: carrageenan 1% subplantar; higher = more edema).
For `Cc1ccc(NC(=O)c2ccc(CN3CCN(C)CC3)cc2)cc1Nc1nccc(-c2cncc(-c3oncc3C)c2)n1`, “dopaminergic neurons preserved” read no less than 85% (mice, α-synuclein PFF-injected, brain; dose not given, therapeutic setting).
`N#Cc1ccc2c(c1)[C@H]1CCCN(C(=O)c3ccc4[nH]cnc4c3)[C@H]1C2` has an androstenedione level of 5.43 nmol/L (human clinical trial, female; oral, 240 mg once daily, at last treatment).
For `O=S(=O)(Nc1nccs1)c1ccc(N=NN(O)c2ccccc2)cc1`, “paw edema volume” read 6.61 ± 0.56 a.u. (carrageenan-induced paw edema; Wistar rat; oral, 100 mg/kg, 2 h after carrageenan, added: carrageenan 1% subplantar; higher = more edema).
With `COc1ccc(C(=O)Nc2ccc(-n3cc(CNc4nc(OC)nc(OC)n4)nn3)cc2)cc1` the IC50 was 13.2 ± 3.52 nM (cell viability, MTT; normal colonocytes, rat; 72 h).
With `Cc1ccc(C(=O)OCc2ccc([C@@H](CN)C(=O)Nc3ccc4cnccc4c3)cc2)c(C)c1` the IOP was 35.7 mmHg (tonometry; NZW rabbit, magnetic bead-induced ocular hypertension; ocular, 0.02%, 8 h).
Under “colon length difference”, `C[C@@H]1CCN(C(=O)CC#N)C[C@@H]1N(C)c1ncnc2[nH]ccc12` is recorded as -11.2 (mice, DSS-induced colitis; 10 mg/kg, day 5, unit not given; baseline: DSS alone).
Under “log2 fold change”, `N#Cc1ccn2c(-c3ccncc3)c(-c3ccc(F)cc3)nc2c1` is recorded as -2.1 (kinase binding, competitor, MIB/MS competition, refers to: HRR25; Candida albicans cell lysate; 10 µM; baseline: DMSO).
`OC(CCN1CCCCC1)(c1ccccc1)C1CC2C=CC1C2` (stereo not drawn): “EEG power, gamma, Fz-Cz” 0.5 µV² (resting-state EEG; healthy elderly humans; oral, 2 mg, eyes closed, LS mean).
For `CCCCC1(CCCC)CN(c2ccccc2)c2cc(SC)c(OCC(=O)N[C@@H](C(=O)NCC(=O)O)c3ccccc3)cc2S(=O)(=O)C1`, the plasma C4 was 61.6 ng/mL (refers to: 7α-hydroxy-4-cholesten-3-one; human, plasma; 10 mg once daily, day 9).
`Cc1ccc(N(O)N=Nc2ccc(S(=O)(=O)Nc3cc(C)on3)cc2)cc1` — result for “paw edema volume”: 6.01 ± 1.24 a.u. (carrageenan-induced paw edema; Wistar rat; oral, 100 mg/kg, 1 h after carrageenan, added: carrageenan 1% subplantar; higher = more edema).
For `COc1c(C)cnc(Cn2cc(C#CCCOP(=O)(O)O)c3c(Cl)nc(N)nc32)c1C`, “serum HER-2 ECD decrease” read less than 20 % below baseline (refers to: HER-2 extracellular domain; human patients, serum; 12 mg/m^2, 1 of 4 patients).
For `COc1ccccc1[C@H](Cn1c(=O)n(C(C)(C)C(=O)O)c(=O)c2c(C)c(-c3ncco3)sc21)OC1CCOCC1`, the serum leptin was 3.68 ± 2.97 ng/mL (human; 50 mg, post-treatment).
For `O=C(OC(C(F)(F)F)C(F)(F)F)N1CCN(Cc2cccc(Oc3ccccc3)c2)CC1`, the k4 was 0.0508 min⁻¹ (PET blocking study; rhesus monkey, brain CB; 0.03 mg/kg, compound pretreatment, added: [18F]T-401 tracer).
The inhibition of `CSCCNc1nc(SCCC(F)(F)F)nc2c1ncn2[C@@H]1O[C@H](COP(=O)(O)OP(=O)(O)C(Cl)(Cl)P(=O)(O)O)[C@@H](O)[C@H]1O` is reported as 25.9 ± 27.8% (platelet aggregation, light transmission aggregometry; human patients, platelet-rich plasma; dose not given, 30 min, added: TRAP 5 µM).
For `CCCN(O)N=Nc1ccc(S(=O)(=O)Nc2cc(C)on2)cc1`, “paw edema volume” read 4.23 ± 0.89 a.u. (carrageenan-induced paw edema; Wistar rat; oral, 100 mg/kg, 3 h after carrageenan, added: carrageenan 1% subplantar; higher = more edema).
Under “percent change from baseline”, `C[C@H]1C[C@H]2CSC(N)=N[C@@]2(c2nc(NC(=O)c3ccc(OC(F)F)cn3)cs2)CO1` is recorded as -61.9% (refers to: Aβx-40; healthy adults, plasma; 50 mg once daily, day 7; baseline: placebo).
For `CC(C)C[C@H](NC(=O)[C@@H](Cc1c[nH]c2ccccc12)NC(=O)[C@H](Cc1ccc(O)cc1)NC(=O)[C@H](CO)NC(=O)[C@H](Cc1c[nH]c2ccccc12)NC(=O)[C@H](Cc1c[nH]cn1)NC(=O)[C@@H]1CCC(=O)N1)C(=O)N[C@@H](CCCNC(=N)N)C(=O)N1CCC[C@H]1C(=O)NCC(N)=O`, “stable pubic hair stage” read 92.4% (Tanner staging; Chinese overall, central precocious puberty; intramuscular, 22.5 mg day 1, month 6, month 6; baseline: baseline).
With `C[C@H]1O[C@@H](O[C@H]2CC[C@@]3(C)[C@@H](CC[C@]4(C)[C@@H]3C=C[C@]35OC[C@@]6(CCC(C)(C)C[C@H]63)[C@@H](O)C[C@]54C)[C@]2(C)CO)[C@H](O)[C@@H](O[C@@H]2O[C@H](CO)[C@@H](O)[C@H](O)[C@H]2O)[C@H]1O` the protein level was 1.01 and 1.03 and 1.24 (Western blot, refers to: caspase3; chronic-plus-binge ethanol-fed mice, liver; dose not given, low dose, unit not given; baseline: β-actin).
For `N=C(N)NCCC[C@H](NC(=O)[C@H](CCCNC(=N)N)NC(=O)[C@H](CCCCN)NC(=O)[C@H](CCC(N)=O)NC(=O)[C@H](CCCCN)NC(=O)[C@H](Cc1ccc(O)cc1)NC(=O)[C@@H](N)CCCCN)C(=O)N[C@@H](CO)C(=O)N[C@@H](Cc1ccc(O)cc1)C(=O)N[C@@H](CCCCN)C(=O)O`, “median VAS change” read -26 (dentin hypersensitivity patients aged ≥sample A years; 10 µg/tooth, day 36, unit not given; baseline: baseline).
For `Cc1cccc(N(O)N=Nc2ccc(S(=O)(=O)Nc3nccs3)cc2)c1`, “paw edema volume” read 5.41 ± 0.73 a.u. (carrageenan-induced paw edema; Wistar rat; oral, 100 mg/kg, 1 h after carrageenan, added: carrageenan 1% subplantar; higher = more edema).
`Oc1ccc(N=Nc2ccc(-c3nc4ccccc4s3)cc2)cc1CN(Cc1ccccc1)Cc1ccccn1` has a TEAC of greater than 2 (ABTS radical scavenging; unit not given; baseline: Trolox).
With `CC(C)NCC(O)c1ccc(O)c(O)c1` (stereo not drawn) the sarcomere length was 1.67 µm (ventricular cardiomyocytes, C57BL/6 mouse; dose not given, 0.268 s).
For `COc1cc(/C=C/C(=O)N2CCC=CC2=O)cc(OC)c1OC`, the mRNA level was 0.521 (qRT-PCR, refers to: MT2A; nude mouse MDA-MB-468 xenograft, tumour; 15 mg/kg, 21 days, normalised to beta-actin, unit not given; baseline: vehicle).
`Cc1cc(F)cc2c(CCC(=O)N[C@@H]3C(=O)NC[C@H]3O)c(-c3ccc(F)cc3)[nH]c12` has a UACR of 1430 µg/mg and 4940 µg/mg and 2000 µg/mg and 2700 µg/mg and 4830 µg/mg (mice, APOL1 G2, single copy; oral, 30 mg/kg twice daily, day 6, added: IFNγ plasmid injection).
`Cn1cc(Nc2nccc(-c3ccc4c(c3)CN(C3COC3)CC[C@H]4NC(=O)c3cn(C(C)(C)C)nn3)n2)cn1` — result for “pathway activation z-score”: 3.9 (refers to: RANK signaling in osteoclasts; splenic B cells, mice; 30 mg/kg, IgD-activated in vivo; baseline: vehicle, direction not given).
For `CO[C@H]1CC[C@H](N2C(=O)CNc3ncc(-c4ccc(C(C)(C)O)nc4)nc32)CC1`, “pS6RP change from baseline” read -67.2% (flow cytometry; stimulated B cells, human, blood; 60 mg single dose, 1.5 h, median; baseline: baseline).
`CC(C)[C@@H](CS(=O)(=O)C(C)C)N1C(=O)[C@@](C)(CC(=O)O)C[C@H](c2cccc(Cl)c2)[C@H]1c1ccc(Cl)cc1`: “time to recurrence after last dose” greater than 100 days (mouse, subcutaneous MDM2-amplified GBM PDX; 100 mg/kg daily, 4 weeks).
For `COc1cc2cc(-c3ccc(CC(=O)Nc4cc(C(C)(C)C(F)(F)F)no4)cn3)cnc2cc1OC`, “stable disease as best response” read 54% (RECIST v1.1; RET-altered advanced solid tumour patients; oral, 75 mg once daily, phase I).
For `COc1nnc2ccc(N3CCC(c4ccc(OCCN5CCN(C)C(=O)[C@H]5C)cc4)CC3)nn12`, “time above HEXIM1 threshold” read 2.93 h (human patients; 5 mg twice daily, 1.5-fold above baseline, monotherapy and combination cohorts).
`Cc1n[nH]c2ccc(-c3cc(OC[C@@H](N)Cc4ccccc4)cnc3-c3ccoc3)cc12` — result for “log2 fold change”: -0.155 (kinase binding, competitor, MIB/MS competition, refers to: SHA3; Candida albicans cell lysate; 100 nM; baseline: DMSO).
`COc1nc(NCc2cn(-c3ccc(NC(=O)c4ccc(C(F)(F)F)cc4)cc3)nn2)nc(OC)n1` has an IC50 of 72.5 ± 4.54 nM (cell viability, MTT; normal colonocytes, rat; 72 h).
The sarcomere length of `O=C(O)CNC(=O)Cc1ccccc1` is reported as 1.69 µm (ventricular cardiomyocytes, C57BL/6 mouse; dose not given, 0.136 s).
`C[C@@H](NC(=O)N1C(=O)[C@H](Cc2ccnc(N)c2)[C@H]1C(=O)O)C1CCCCC1` has an aPTT Emax of 48.5 s (human; iv infusion, 0.6 mg/kg/h, 24 h).
With `CC#CC(=O)N[C@H]1CCCN(c2c(F)cc(C(N)=O)c3[nH]c(C)c(C)c23)C1` the serum immunoglobulin was -6.2 % change (refers to: IgA; human; 3 mg once daily, day 21; baseline: baseline).
For `CC(C)[C@H](C(=O)Nc1ccc(C(=O)NO)cc1)c1ccccc1`, the tumour volume was 2.1 cm³ (volumetric MRI; human, left internal auditory canal tumour; dose not given, 51 days).
`C=CCn1c(=O)c2cnc(Nc3ccc(N4CCN(C)CC4)cc3)nc2n1-c1ccc2c(n1)[C@@](O)(CC)CC2`: “time to γH2AX return to baseline” no more than 72 h (immunohistochemistry; mouse, OVCAR-3 xenograft, tumour; 100 mg/kg, dosed 5 days).
Under “log2 fold change”, `N#Cc1ccc2c(-c3ccncc3)c(-c3ccc(F)cc3)nn2c1` is recorded as -1.2 (kinase binding, competitor, MIB/MS competition, refers to: HRR25; Candida albicans cell lysate; 1 µM; baseline: DMSO).
Under “paw edema volume”, `Cc1cccc(N(O)N=Nc2ccc(S(=O)(=O)Nc3cc(C)on3)cc2)c1` is recorded as 3.4 ± 0.45 a.u. (carrageenan-induced paw edema; Wistar rat; oral, 100 mg/kg, 0 h (baseline), added: carrageenan 1% subplantar; higher = more edema).

A few entries again:
For `Cc1cccc(N(O)N=Nc2ccc(S(=O)(=O)Nc3nccs3)cc2)c1`, “paw edema volume” read 5.41 ± 0.73 a.u. (carrageenan-induced paw edema; Wistar rat; oral, 100 mg/kg, 1 h after carrageenan, added: carrageenan 1% subplantar; higher = more edema).
`COc1nc(NCc2cn(-c3ccc(NC(=O)c4ccc(C(F)(F)F)cc4)cc3)nn2)nc(OC)n1` has an IC50 of 72.5 ± 4.54 nM (cell viability, MTT; normal colonocytes, rat; 72 h).
With `COc1ccc(C(=O)Nc2ccc(-n3cc(CNc4nc(OC)nc(OC)n4)nn3)cc2)cc1` the IC50 was 13.2 ± 3.52 nM (cell viability, MTT; normal colonocytes, rat; 72 h).
For `CO[C@H]1CC[C@H](N2C(=O)CNc3ncc(-c4ccc(C(C)(C)O)nc4)nc32)CC1`, “pS6RP change from baseline” read -67.2% (flow cytometry; stimulated B cells, human, blood; 60 mg single dose, 1.5 h, median; baseline: baseline).
For `Cc1ccc(NC(=O)c2ccc(CN3CCN(C)CC3)cc2)cc1Nc1nccc(-c2cncc(-c3oncc3C)c2)n1`, “dopaminergic neurons preserved” read no less than 85% (mice, α-synuclein PFF-injected, brain; dose not given, therapeutic setting).
